Published values collected from several papers.
Each line is one published result; not all experiments were run side by side. Several values in a cell are separate wells, animals, samples, runs or records. ± marks the error that the study gave.
MKC1: Mitogen-activated protein kinase MKC1 (MKC1, Candida albicans, UniProt P43068)
Sequence of UniProt P43068 (whole entry, looked up): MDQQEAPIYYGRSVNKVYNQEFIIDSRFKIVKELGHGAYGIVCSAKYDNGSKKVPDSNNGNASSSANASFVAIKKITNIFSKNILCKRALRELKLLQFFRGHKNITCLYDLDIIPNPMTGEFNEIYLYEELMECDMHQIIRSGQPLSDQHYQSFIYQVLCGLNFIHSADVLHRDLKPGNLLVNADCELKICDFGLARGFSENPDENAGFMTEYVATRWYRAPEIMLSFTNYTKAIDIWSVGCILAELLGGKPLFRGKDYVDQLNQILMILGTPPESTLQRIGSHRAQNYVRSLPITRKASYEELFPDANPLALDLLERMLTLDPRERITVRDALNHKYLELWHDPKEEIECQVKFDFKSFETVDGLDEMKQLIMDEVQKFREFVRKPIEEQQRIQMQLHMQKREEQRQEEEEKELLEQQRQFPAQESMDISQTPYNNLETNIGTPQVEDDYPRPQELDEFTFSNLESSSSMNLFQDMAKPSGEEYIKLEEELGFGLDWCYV
TOP2A: DNA topoisomerase 2-alpha (TOP2A, Homo sapiens, UniProt P11388)
Sequence of UniProt P11388 (whole entry, looked up): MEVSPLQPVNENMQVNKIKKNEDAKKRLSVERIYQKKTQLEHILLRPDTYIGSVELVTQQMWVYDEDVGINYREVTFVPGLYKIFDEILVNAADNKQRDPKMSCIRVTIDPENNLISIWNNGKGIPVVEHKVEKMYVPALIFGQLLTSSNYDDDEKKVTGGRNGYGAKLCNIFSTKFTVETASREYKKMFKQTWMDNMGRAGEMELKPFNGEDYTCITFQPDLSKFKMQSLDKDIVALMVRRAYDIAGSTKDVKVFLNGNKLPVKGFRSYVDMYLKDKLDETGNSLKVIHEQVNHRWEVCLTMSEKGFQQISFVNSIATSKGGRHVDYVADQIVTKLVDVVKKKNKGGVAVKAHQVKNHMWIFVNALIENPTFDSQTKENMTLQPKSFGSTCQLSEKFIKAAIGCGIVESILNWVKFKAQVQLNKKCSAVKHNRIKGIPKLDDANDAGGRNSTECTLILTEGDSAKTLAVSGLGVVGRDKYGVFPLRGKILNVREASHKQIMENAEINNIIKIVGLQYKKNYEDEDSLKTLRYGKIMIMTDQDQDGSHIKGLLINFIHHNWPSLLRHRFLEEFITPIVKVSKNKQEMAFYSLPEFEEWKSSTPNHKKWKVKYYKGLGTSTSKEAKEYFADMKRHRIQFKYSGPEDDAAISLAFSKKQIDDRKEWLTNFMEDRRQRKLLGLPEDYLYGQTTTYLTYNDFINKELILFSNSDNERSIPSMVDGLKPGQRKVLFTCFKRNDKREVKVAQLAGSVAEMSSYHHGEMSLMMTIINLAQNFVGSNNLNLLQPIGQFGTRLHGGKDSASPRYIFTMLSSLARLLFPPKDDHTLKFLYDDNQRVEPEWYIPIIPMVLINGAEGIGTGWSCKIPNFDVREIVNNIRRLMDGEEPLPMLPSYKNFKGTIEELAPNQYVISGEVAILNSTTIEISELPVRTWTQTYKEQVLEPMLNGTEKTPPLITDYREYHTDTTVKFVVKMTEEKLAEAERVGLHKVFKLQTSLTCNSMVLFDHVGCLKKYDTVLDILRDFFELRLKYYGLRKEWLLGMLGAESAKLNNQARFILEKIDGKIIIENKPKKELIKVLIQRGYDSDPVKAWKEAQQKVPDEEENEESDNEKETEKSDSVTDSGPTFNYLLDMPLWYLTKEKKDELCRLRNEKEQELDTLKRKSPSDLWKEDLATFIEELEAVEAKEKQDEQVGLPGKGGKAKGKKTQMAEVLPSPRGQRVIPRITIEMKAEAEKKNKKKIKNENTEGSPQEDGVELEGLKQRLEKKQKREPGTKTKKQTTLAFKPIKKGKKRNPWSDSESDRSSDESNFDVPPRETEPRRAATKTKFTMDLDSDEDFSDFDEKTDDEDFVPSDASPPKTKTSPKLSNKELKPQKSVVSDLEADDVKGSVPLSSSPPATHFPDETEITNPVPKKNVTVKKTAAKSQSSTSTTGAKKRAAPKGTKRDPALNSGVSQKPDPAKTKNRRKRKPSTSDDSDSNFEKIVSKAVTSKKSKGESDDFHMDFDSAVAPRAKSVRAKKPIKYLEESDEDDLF
BEST2: Bestrophin-2a (BEST2, Homo sapiens, UniProt Q8NFU1)
Sequence of UniProt Q8NFU1 (whole entry, looked up): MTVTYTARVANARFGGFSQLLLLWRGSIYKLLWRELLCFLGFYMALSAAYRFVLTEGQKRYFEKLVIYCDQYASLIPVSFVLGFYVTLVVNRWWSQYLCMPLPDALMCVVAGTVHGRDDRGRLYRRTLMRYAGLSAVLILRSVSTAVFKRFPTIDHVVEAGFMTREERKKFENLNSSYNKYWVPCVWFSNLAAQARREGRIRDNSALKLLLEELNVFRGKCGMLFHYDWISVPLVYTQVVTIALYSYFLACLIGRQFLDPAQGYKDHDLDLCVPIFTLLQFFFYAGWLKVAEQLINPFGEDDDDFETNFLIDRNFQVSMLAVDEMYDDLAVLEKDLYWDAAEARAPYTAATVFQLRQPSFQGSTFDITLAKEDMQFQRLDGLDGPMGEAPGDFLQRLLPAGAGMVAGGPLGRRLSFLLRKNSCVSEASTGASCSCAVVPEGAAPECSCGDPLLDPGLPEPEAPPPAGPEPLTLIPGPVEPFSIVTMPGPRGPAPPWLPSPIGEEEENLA
T1: G-quadruplex RNA (Homo sapiens); GAGGGAGGCGGAGGCUG
Sequence of UniProt Q9EP73 (whole entry, looked up): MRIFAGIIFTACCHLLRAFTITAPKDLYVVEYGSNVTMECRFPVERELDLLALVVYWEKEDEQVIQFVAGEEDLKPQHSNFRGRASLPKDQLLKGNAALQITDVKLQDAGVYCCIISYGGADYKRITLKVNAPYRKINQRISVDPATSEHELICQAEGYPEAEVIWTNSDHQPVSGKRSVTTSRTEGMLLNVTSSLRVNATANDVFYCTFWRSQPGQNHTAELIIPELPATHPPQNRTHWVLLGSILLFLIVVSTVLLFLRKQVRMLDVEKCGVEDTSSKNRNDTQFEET
Sequence of UniProt P07550 (whole entry, looked up): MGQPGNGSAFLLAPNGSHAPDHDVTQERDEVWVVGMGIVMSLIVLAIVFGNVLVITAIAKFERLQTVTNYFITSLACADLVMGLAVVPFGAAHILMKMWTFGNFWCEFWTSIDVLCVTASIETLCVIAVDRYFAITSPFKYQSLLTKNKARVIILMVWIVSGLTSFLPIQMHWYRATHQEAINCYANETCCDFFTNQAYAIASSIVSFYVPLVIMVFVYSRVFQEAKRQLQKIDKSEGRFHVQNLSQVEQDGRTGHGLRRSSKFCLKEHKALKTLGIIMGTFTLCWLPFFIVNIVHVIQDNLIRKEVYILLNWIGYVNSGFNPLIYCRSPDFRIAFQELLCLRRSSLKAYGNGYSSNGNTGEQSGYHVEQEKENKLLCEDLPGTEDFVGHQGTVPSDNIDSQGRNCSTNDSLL
Sequence of UniProt Q16774 (whole entry, unmodified, looked up): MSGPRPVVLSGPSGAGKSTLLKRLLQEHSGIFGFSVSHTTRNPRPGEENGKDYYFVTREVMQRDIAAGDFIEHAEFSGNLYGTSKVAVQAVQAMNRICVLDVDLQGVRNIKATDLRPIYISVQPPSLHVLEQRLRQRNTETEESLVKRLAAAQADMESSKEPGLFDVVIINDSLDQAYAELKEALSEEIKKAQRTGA
Sequence of UniProt P51575 (whole entry, unmodified, looked up): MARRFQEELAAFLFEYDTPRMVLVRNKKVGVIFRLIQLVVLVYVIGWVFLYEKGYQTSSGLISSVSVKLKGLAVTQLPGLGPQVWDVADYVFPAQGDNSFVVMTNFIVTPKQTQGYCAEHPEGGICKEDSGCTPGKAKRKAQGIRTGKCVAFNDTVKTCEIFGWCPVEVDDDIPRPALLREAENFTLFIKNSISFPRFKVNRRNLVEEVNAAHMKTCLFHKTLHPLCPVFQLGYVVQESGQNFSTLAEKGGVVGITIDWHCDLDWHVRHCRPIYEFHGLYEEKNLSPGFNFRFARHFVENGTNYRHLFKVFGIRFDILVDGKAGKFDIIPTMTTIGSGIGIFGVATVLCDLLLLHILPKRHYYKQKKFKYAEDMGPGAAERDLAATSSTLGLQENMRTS
Sequence of UniProt P31941 (whole entry, looked up): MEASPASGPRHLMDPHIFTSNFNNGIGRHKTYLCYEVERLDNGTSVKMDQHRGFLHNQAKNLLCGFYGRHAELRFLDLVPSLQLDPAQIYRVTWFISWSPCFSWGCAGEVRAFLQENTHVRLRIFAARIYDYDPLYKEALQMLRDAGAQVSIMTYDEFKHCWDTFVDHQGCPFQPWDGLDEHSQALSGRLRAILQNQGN
Sequence of UniProt Q96RI1 (whole entry, looked up): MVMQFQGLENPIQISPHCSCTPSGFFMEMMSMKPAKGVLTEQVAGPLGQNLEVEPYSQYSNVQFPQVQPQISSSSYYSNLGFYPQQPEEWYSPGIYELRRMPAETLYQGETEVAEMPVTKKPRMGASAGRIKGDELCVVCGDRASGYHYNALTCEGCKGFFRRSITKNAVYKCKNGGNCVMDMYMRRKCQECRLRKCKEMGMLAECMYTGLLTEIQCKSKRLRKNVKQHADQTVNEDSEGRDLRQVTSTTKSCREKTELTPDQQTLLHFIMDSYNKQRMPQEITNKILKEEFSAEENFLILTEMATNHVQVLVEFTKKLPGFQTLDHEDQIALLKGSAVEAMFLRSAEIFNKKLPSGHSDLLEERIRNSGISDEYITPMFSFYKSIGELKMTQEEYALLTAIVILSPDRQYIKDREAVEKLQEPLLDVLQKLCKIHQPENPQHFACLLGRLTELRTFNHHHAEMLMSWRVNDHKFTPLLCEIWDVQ
Sequence of UniProt P32241 (whole entry, looked up): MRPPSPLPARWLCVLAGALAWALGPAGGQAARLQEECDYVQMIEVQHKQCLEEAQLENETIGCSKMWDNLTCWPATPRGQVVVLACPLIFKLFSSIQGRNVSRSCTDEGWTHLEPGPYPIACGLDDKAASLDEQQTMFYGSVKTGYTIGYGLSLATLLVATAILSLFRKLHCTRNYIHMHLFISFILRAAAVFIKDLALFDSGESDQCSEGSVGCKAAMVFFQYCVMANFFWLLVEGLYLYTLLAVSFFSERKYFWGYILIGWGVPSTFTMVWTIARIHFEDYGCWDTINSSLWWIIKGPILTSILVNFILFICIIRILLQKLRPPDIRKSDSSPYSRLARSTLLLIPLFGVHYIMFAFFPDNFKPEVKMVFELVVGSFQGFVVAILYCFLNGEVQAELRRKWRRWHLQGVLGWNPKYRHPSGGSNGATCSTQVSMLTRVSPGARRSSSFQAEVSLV

SMILES	target	test	system	setting	scale	measurement	result
NC(=O)C1CCN(C(=O)Cc2ccc(N(CCCO)Cc3cnc4nc(N)nc(N)c4n3)cc2)CC1	Pteridine reductase 1 (Leishmania major, UniProt Q01782)	–	–	hDHFR weight 10	relative to: LmPTR1, LmDHFR over hDHFR, 1.0 selective, 0.0 non-selective	partition index	0.96
Nc1nc2c(ncn2[C@@H]2O[C@@H]3COP(=O)(O)O[C@H]3[C@H]2O)c(=O)[nH]1	Cone cGMP-gated channel (Morone saxatilis, UniProt Q3I0N1+Q3I0N2)	channel current, agonist, suction electrode	cone outer segments	together with: 0.2 µM Ca2+	–	Hill coefficient	2.47 ± 0.41
Nc1nc2c(ncn2[C@@H]2O[C@H](COP(=O)(O)O)[C@@H](O)[C@H]2O)c(=O)[nH]1	GUK1 (Homo sapiens, UniProt Q16774, R148A)	binding, ITC	–	–	–	ΔH	-9.67 ± 0.09 kcal/mol
CC(C)c1noc2ncc(C(=O)c3ccccc3O)cc12	Otop1 (Mus musculus, UniProt Q80VM9)	pH 8.5-evoked current, patch clamp	–	10 µM, pH 8.5, third pulse after pH 8.5 alone	–	normalized current I3/I1	1.02
O=c1cc(-c2ccc(OS(=O)(=O)[O-])cc2)oc2cc(OS(=O)(=O)[O-])cc(OCc3cccc(COc4cc(OS(=O)(=O)[O-])cc5oc(-c6ccc(OS(=O)(=O)[O-])cc6)cc(=O)c45)n3)c12.[Na+].[Na+].[Na+].[Na+]	Neutrophil elastase (ELANE, Homo sapiens, UniProt P08246)	–	–	500 nM, together with: chromogenic substrate	–	Vmax	30.3 ± 0.9 mAU/min
O=c1cc(-c2ccc([N+](=O)[O-])cc2)[nH]c2c(-c3ccc(Cl)cc3)c(Cc3ccccc3)nn12	Bis(5'-nucleosyl)-tetraphosphatase [asymmetrical] (Homo sapiens, UniProt P50583)	thermal stability, binder, thermal proteome profiling	RD, cell lysate	50 µM, 0.5% DMSO	relative to: DMSO vehicle	melting temperature shift	7.3 °C
Cc1n[nH]c2ccc(-c3cc(OC[C@@H](N)Cc4ccccc4)cnc3-c3ccoc3)cc12	MKC1	kinase binding, competitor, MIB/MS competition, refers to: MKC1	Candida albicans cell lysate	10 µM	relative to: DMSO	log2 fold change	-1.76
CCC1(O)CCCN(C(=O)c2ccc(-c3ccc(F)c(NC(=O)CCl)c3)cc2)C1 (centres unmarked)	DNA dC->dU-editing enzyme APOBEC-3A (Homo sapiens, UniProt P31941)	covalent adduct, intact protein MS	–	1 h, 20-fold excess, 500 µM	–	unmodified protein	0%
[Cl-].[Na+]	GUK1 (Homo sapiens, UniProt Q16774)	enzyme activity, NADH-coupled	–	7.5 mM	–	reaction velocity	-0.00247 µM/s and 0.0072 µM/s and 0.0165 µM/s
Nc1ncnc2c1ncn2[C@@H]1O[C@H](COP(=O)(O)CP(=O)(O)OP(=O)(O)O)[C@@H](O)[C@H]1O	P2X purinoceptor 1 (P2RX1, Homo sapiens, UniProt P51575, K136A)	saturation binding	HEK293	130 nM	–	specific binding	3680 CCPM and 3440 CCPM
Cc1cc(CCOCCCCCc2ccccc2)cc2nc[nH]c12	ATP2A2 (Sus scrofa, UniProt P11607)	ATPase activity, activator	pig microsomes	10 µM	–	increase in Vmax	~12%
Cc1ccc2c(c1)sc(-c1ccc(N(C)C)cc1)[n+]2C	T1, G-quadruplex RNA (Homo sapiens)	ThT fluorescence	–	potassium phosphate 100 mM, reduced with Li+	–	binding	binds
COc1cc(-c2cc(C(C)=O)n3ccccc23)cc(OC)c1Cn1ccnc1	PHIP, BD2 (Homo sapiens, UniProt Q8WWQ0)	–	–	–	–	ΔTm	-2 °C
CC[C@@H](C)[C@@H](NC(=O)[C@@H](Cc1ccc(O)cc1)NC(=O)[C@H]1CCCN1C(=O)[C@@H](CCCNC(=N)N)NC(=O)[C@H](N)Cc1c[nH]cn1)C(=O)N[C@H](C)C(=O)N[C@H](Cc1c[nH]cn1)C(=O)N[C@H](CCCNC(=N)N)C(=O)N[C@@H](C(=O)N[C@H](Cc1ccc(O)cc1)C(=O)N[C@H](CO)C(=O)N[C@H](Cc1ccccc1)C(N)=O)C(C)C	Programmed cell death 1 ligand 1, with PD-1 (Cd274, Mus musculus, UniProt Q9EP73)	PD-1-Fc binding	MC-38	concentration not given, 48 h	–	PD-L1 blocking rate	7.78% and 7.6% and 9.98%
O=c1c2nc(Br)n([C@@H]3O[C@@H]4COP(=O)(O)O[C@H]4[C@H]3O)c2nc2[nH]c(-c3ccccc3)cn12	anti-cGMP antibody	antibody binding, competitive cGMP EIA	–	concentration not given, acetylated samples	relative to: EC50 cGMP over EC50 cpd, higher = stronger binding	relative binding affinity	0.101
CN1CCN(c2cc(-c3ccncc3)c(-c3ccc4ccccc4c3)nn2)CC1	Vasoactive intestinal polypeptide receptor 1 (VIPR1, Homo sapiens, UniProt P32241)	agonist, FLIPR	–	12.5 µM	–	activation	-1.2%
O=c1nc(SCc2cc(F)cc(C(F)(F)F)c2)nc(SCc2nc3ccccc3[nH]2)[nH]1	TOP2A	decatenation	–	31.25 µM	–	mean decatenated DNA	51.2%
N[C@@H](Cc1ccccc1)C(=O)O	Beta-2 adrenergic receptor (ADRB2, Homo sapiens, UniProt P07550)	–	HEK293 expressing β2AR	33 µM	–	cAMP level	18.3 pmol/mg protein and 19.7 pmol/mg protein and 21.7 pmol/mg protein and 20.8 pmol/mg protein
C=CC(=O)N1CCC[C@@H](n2nc(-c3ccc(Oc4ccccc4)cc3)c3c(N)ncnc32)C1	Protein-tyrosine kinase 6 (PTK6, Homo sapiens, UniProt Q13882)	–	–	0.1 µM	–	remaining activity	127%
CCC(C)(NCCc1ccc(OC)c(Cl)c1)c1cccc(NC2=CC(=O)N(C3CCC(=O)NC3=O)C2=O)c1 (centres unmarked)	Cereblon/Ikaros (Homo sapiens, UniProt Q13422+Q96SW2)	protein degradation, degrader, HiBiT luminescence	Jurkat	–	–	Dmax	76%
COc1ccc(C(=O)/C=C/c2cccc(-c3cccc(-c4ccc(CNC5CCC(=O)NC5=O)c(OC)n4)c3C)c2)cc1 (centres unmarked)	Programmed cell death 1 ligand 1 (CD274, Homo sapiens, UniProt Q9NZQ7)	degrader, western blot	HL-60	1 µM	–	degradation	< 5%

SMILES	target	test	system	setting	scale	measurement	result
COCCC(=O)N1CCC(Oc2ccccc2)C1 (centres unmarked)	DNA (cytosine-5)-methyltransferase 3A, PWWP domain (DNMT3A, Homo sapiens, UniProt Q9Y6K1)	binding, affinity selection mass spectrometry	–	–	relative to: other proteins in batch	log fold enrichment	-0.143
O=C(O)c1ccc(O)cc1	BEST2	whole-cell patch clamp	HEK293 transiently expressing channel	concentration not given, membrane potential 0 mV	–	current density	-0.18 pA/pF and -0.23 pA/pF and -0.57 pA/pF and -0.01 pA/pF and -0.06 pA/pF and -0.73 pA/pF and -0.4 pA/pF
NS(=O)(=O)c1ccc(Nc2nc(OCC3CCCCC3)c3[nH]cnc3n2)cc1	Serine/threonine-protein kinase N1 (PKN1, Homo sapiens, UniProt Q16512)	inhibitor	–	–	–	Hill slope	-0.577
C=C1C(=O)O[C@@H]2C[C@@]3(C)CCCC(=C)[C@@H]3C[C@H]12	Bile acid receptor (NR1H4, Homo sapiens, UniProt Q96RI1)	reporter gene, Gal4 hybrid reporter	–	10 µM	relative to: vehicle	activation	1.16 fold
C[C@@H]1C[C@H](Nc2ccccc2)c2cc(F)ccc2N1C(=O)c1ccc(Cl)nc1	Ecdysone receptor (Aedes albopictus, UniProt Q9U3Y4)	ligand binding, inhibitor	intact cells	together with: [3H]ponasterone A	direction not given	pIC50 Z-score	0.26
CC(C)c1ccc(CSc2nc(SCc3ccc4sccc4c3)[nH]c(=O)n2)cc1	TOP2A	decatenation	–	15.6 µM	–	mean decatenated DNA	2.66%
Cc1ccc(N(C)C(=O)/C=C/c2ccco2)cc1	Neuronal acetylcholine receptor subunit alpha-7 (Chrna7, Rattus norvegicus, UniProt Q05941)	inhibitor	–	together with: acetylcholine 30 µM	–	Hill coefficient	1.3 ± 0.2
c1coc(-c2n[nH]cc2-c2ccnc3ccccc23)c1	MKC1	kinase binding, MIB/MS competition	Candida albicans lysate	10 µM	relative to: DMSO, negative = stronger binding	log2 fold change	-0.24
CCCCN1/C(=C/C=C/c2sc3ccc(Br)cc3[n+]2CCCC)Sc2ccc(Br)cc21.[I-]	Protein arginine N-methyltransferase 6 (PRMT6, Homo sapiens, UniProt Q96LA8)	inhibitor, filter binding	–	together with: R4 peptide substrate	–	Hill coefficient	1.39
O=C(O)C1CCCNC1 (centres unmarked)	Sodium- and chloride-dependent taurine transporter (SLC6A6, Homo sapiens, UniProt P31641, Y138A)	binding, microscale thermophoresis	–	43.2 nM, fitted curve	higher = more binding	fraction bound	0.00214
Nc1ncnc2c1ncn2[C@@H]1O[C@H](CO[P@](=O)(O)O[P@](=O)(O)O[P@@](=O)(O)S)[C@@H](O)[C@H]1O	uncharacterized protein (Thermomonospora curvata, UniProt D1ABX1)	ITC	–	500 µM, pH 7.5, 25 °C	–	binding stoichiometry	1.2 ± 0.3 sites
C[S+](CC[C@H](N)C(=O)[O-])C[C@H]1O[C@@H](n2cnc3c(N)ncnc32)[C@H](O)[C@@H]1O (some centres unmarked)	Histone-lysine N-methyltransferase 2C (KMT2C, Homo sapiens, UniProt Q8NEZ4)	substrate, enzyme-coupled methylation	–	together with: H3 peptide 200 µM	–	apparent Km	12.8 ± 1.3 µM
Nc1ccc(C(=O)O)cc1	BEST2	whole-cell patch clamp	HEK293 transiently expressing channel	concentration not given, membrane potential -60 mV	–	current density	-46.7 pA/pF and -139 pA/pF and -190 pA/pF and -169 pA/pF and -97.3 pA/pF and -219 pA/pF
CC1(C)O[C@@H]2[C@@H](CO[C@@]3(COS(N)(=O)=O)OC(C)(C)O[C@@H]23)O1	Carbonic anhydrase 4 (CA4, Homo sapiens, UniProt P22748)	ITC	–	concentration not given, 25 °C	–	intrinsic binding ΔH	-7.15 kcal/mol
N#Cc1ccc2[nH]cc(CCCCN3CCN(c4ccc5oc(C(N)=O)cc5c4)CC3)c2c1	Sodium-dependent serotonin transporter (SLC6A4, Homo sapiens, UniProt P31645, I172M/S438T)	[3H]5-HT uptake, inhibitor	COS-7	–	–	Hill coefficient	0.83 ± 0.16
O=C1C(SCCO)=C(SCCO)C(=O)c2ccccc21	Protein-glutamine gamma-glutamyltransferase (TGM2, Homo sapiens, UniProt P21980)	enzyme activity, inhibitor	–	concentration not given, together with: DTT	relative to: without DTT over with DTT	potency reduction	~50 fold
O=c1nc(SCc2cc(F)cc(C(F)(F)F)c2)nc(SCc2ccc3nc(Cl)ccc3c2)[nH]1	TOP2A	DNA cleavage	–	125 µM, replicate 2	–	linear DNA	3.73%
O=C(O)c1ccc([N+](=O)[O-])cc1	BEST2	whole-cell patch clamp	HEK293 transiently expressing channel	concentration not given, membrane potential 100 mV	–	current density	91.5 pA/pF and 330 pA/pF and 406 pA/pF and 290 pA/pF and 361 pA/pF
O=c1nc(SCc2ccc(C(F)(F)F)cc2)nc(SCc2ccc3sccc3c2)[nH]1	TOP2A	decatenation	–	15.6 µM, replicate 2	–	decatenated DNA	82.7%
C#Cc1cccc(Oc2ccc(-c3nn([C@@H]4CCCN(C(=O)C=C)C4)c4ncnc(N)c34)cc2)c1	Retinaldehyde dehydrogenase 3 (ALDH1A3, Homo sapiens, UniProt P47895)	ABPP-SILAC	–	1 µM, 1 h	relative to: DMSO	SILAC ratio	20

For quick reference, copied from above:
SMILES	target	test	system	setting	scale	measurement	result
COCCC(=O)N1CCC(Oc2ccccc2)C1 (centres unmarked)	DNA (cytosine-5)-methyltransferase 3A, PWWP domain (DNMT3A, Homo sapiens, UniProt Q9Y6K1)	binding, affinity selection mass spectrometry	–	–	relative to: other proteins in batch	log fold enrichment	-0.143
O=c1c2nc(Br)n([C@@H]3O[C@@H]4COP(=O)(O)O[C@H]4[C@H]3O)c2nc2[nH]c(-c3ccccc3)cn12	anti-cGMP antibody	antibody binding, competitive cGMP EIA	–	concentration not given, acetylated samples	relative to: EC50 cGMP over EC50 cpd, higher = stronger binding	relative binding affinity	0.101
O=c1cc(-c2ccc([N+](=O)[O-])cc2)[nH]c2c(-c3ccc(Cl)cc3)c(Cc3ccccc3)nn12	Bis(5'-nucleosyl)-tetraphosphatase [asymmetrical] (Homo sapiens, UniProt P50583)	thermal stability, binder, thermal proteome profiling	RD, cell lysate	50 µM, 0.5% DMSO	relative to: DMSO vehicle	melting temperature shift	7.3 °C
CCC(C)(NCCc1ccc(OC)c(Cl)c1)c1cccc(NC2=CC(=O)N(C3CCC(=O)NC3=O)C2=O)c1 (centres unmarked)	Cereblon/Ikaros (Homo sapiens, UniProt Q13422+Q96SW2)	protein degradation, degrader, HiBiT luminescence	Jurkat	–	–	Dmax	76%
C[C@@H]1C[C@H](Nc2ccccc2)c2cc(F)ccc2N1C(=O)c1ccc(Cl)nc1	Ecdysone receptor (Aedes albopictus, UniProt Q9U3Y4)	ligand binding, inhibitor	intact cells	together with: [3H]ponasterone A	direction not given	pIC50 Z-score	0.26
Cc1n[nH]c2ccc(-c3cc(OC[C@@H](N)Cc4ccccc4)cnc3-c3ccoc3)cc12	MKC1	kinase binding, competitor, MIB/MS competition, refers to: MKC1	Candida albicans cell lysate	10 µM	relative to: DMSO	log2 fold change	-1.76
